{"data": "Measurements from different studies", "note": "Lines come from different studies, so protocols differ. ± marks the error that the study gave."}
{"Structure (SMILES)": "CC(C)CCC[C@@H](C)[C@H]1CCC([C@@H]2CC[C@H]3C[C@H](O)CC[C@]3(C)[C@H]2O)[C@]1(C)CC(=O)O (stereo partly shown)", "assay": "inhibitor", "test system": "C57BL/6J male mice, antibiotic-treated, liver", "conditions": "oral gavage, 10 mg/kg, with: taurocholic acid 400 mg/kg", "measurement": "Fxr mRNA level", "result": "inhibited"}
{"Structure (SMILES)": "O=c1c(OCc2ccccc2)c(-c2ccc(Cl)cc2)oc2ccccc12", "test system": "diabetic rat", "conditions": "7.5 mg/kg, 28 days, p-nitrophenyl β-glucoside induced", "measurement": "serum total cholesterol", "result": "140 ± 4.76 mg/dL"}
{"Structure (SMILES)": "C[C@H](CC(=O)C[C@@H](C)[C@H]1C[C@H](O)[C@@]2(C)C3=C(C(=O)C[C@]12C)[C@@]1(C)CCC(=O)C(C)(C)[C@@H]1C[C@@H]3O)C(=O)O", "test system": "mouse, STZ-induced type 1 diabetes, liver", "conditions": "dose not given", "measurement": "glucose-6-phosphatase activity", "result": "28.5 ± 1.34 U/mg tissue"}
{"Structure (SMILES)": "C=CC(=O)N1C[C@H](C)N(c2nc(OC[C@@]34CCCN3C[C@H](F)C4)nc3c(F)c(-c4ccc(F)c5sc(N)c(C#N)c45)c(C(F)(F)F)cc23)C[C@H]1C", "test system": "NCI-H358 xenograft, mouse", "conditions": "oral, 3 mg/kg once daily, 28 days", "measurement": "tumour regression", "result": "19%"}
{"Structure (SMILES)": "Cc1ncc([N+](=O)[O-])n1CCOCc1nnc(SCC(=O)c2ccc(Br)cc2)o1", "conditions": "75 µg/mL, 45 min", "measurement": "DPPH scavenging", "result": "40.57 ± 0.32%"}
{"Structure (SMILES)": "CC(C)(O)c1ccc(N2Cc3c(ccnc3-c3ccc(F)cc3OCC(F)(F)F)C2=O)cc1", "test system": "Gaucher disease mouse model, plasma", "conditions": "10 mg/kg, 2 months once daily", "how to read": "relative to: vehicle", "measurement": "glucosylsphingosine level", "result": "58 ± 6%"}
{"Structure (SMILES)": "COCc1ccc(C=O)n1CCCC(=O)O", "assay": "hydroxyl radical scavenging, H2O2/FeSO4, H2DCF-DA", "conditions": "50% scavenging", "measurement": "ED50", "result": "11.9 µM"}
{"Structure (SMILES)": "O=C(C=Cc1ccc(O)c(O)c1)OC1CC(O)(C(=O)O)CC(O)C1O (stereo not shown)", "assay": "decreased", "test system": "Kunming mice, isoprenaline-induced myocardial infarction, serum", "conditions": "intravenous, 30 mg/kg daily for 7 days, day 7", "how to read": "relative to: model group", "measurement": "creatine kinase activity", "result": "decreased"}
{"Structure (SMILES)": "C=C(c1ncc(C(=O)O)cn1)c1cc2c(cc1C)C(C)(C)CCC2(C)C", "assay": "RNA sequencing, refers to: Mpeg1", "test system": "rat, brain", "conditions": "dose not given, 24 h", "how to read": "relative to: vehicle", "measurement": "log2 fold change", "result": 0.44}
{"Structure (SMILES)": "Cc1ccc(-c2oc3ccccc3c(=O)c2OCc2ccccc2)cc1", "test system": "diabetic rat", "conditions": "5 mg/kg, 28 days, p-nitrophenyl β-glucoside induced", "measurement": "serum HDL cholesterol", "result": "42.8 ± 1.9 mg/dL"}
{"Structure (SMILES)": "COc1cc(C(=O)OCCCN2CCCN(CCCOC(=O)c3cc(OC)c(OC)c(OCc4ccc([N+](=O)[O-])cc4)c3)CC2)cc(OC)c1OC", "test system": "mouse, SNI neuropathic pain", "conditions": "peri-sciatic nerve, 10 nmol", "measurement": "cold pain", "result": "decreased"}
{"Structure (SMILES)": "COc1ccc2c(c1)c(CC(=O)OCOC(C)=O)c(C)n2C(=O)c1ccc(Cl)cc1", "assay": "acetic acid writhing test", "test system": "BALB/c mouse", "conditions": "intraperitoneal, 30 mg/kg", "how to read": "relative to: negative control", "measurement": "analgesia", "result": "86.2%"}
{"Structure (SMILES)": "CC[C@H]1[C@@H](O)[C@@H]2[C@H](CC[C@]3(C)[C@@H]([C@H](C)CCOS(=O)(=O)[O-])CC[C@@H]23)[C@@]2(C)CC[C@@H](O)C[C@@H]12.[Na+]", "test system": "ob/ob NASH mouse model", "conditions": "oral, 3 mg/kg once daily, week 4", "measurement": "fasting blood glucose", "result": "8.2 ± 0.2 mmol/L"}
{"Structure (SMILES)": "Cc1sc(-c2ccc(C(F)(F)F)cc2)nc1-c1nn[nH]c1C#N", "test system": "male ZDF rat", "conditions": "oral, 4 mg/kg/day, 1008 h", "how to read": "relative to: vehicle", "measurement": "HbA1c reduction", "result": "0.53 percentage points"}
{"Structure (SMILES)": "CCCC[C@H](NC(=O)[C@@H](NC(=O)[C@H](CC(=O)O)NC(=O)[C@H](CCC(N)=O)NC(=O)[C@H](CC(C)C)NC(=O)[C@H](CC(C)C)NC(=O)[C@H](CCCN)NC(=O)[C@H](CCCNC(=N)N)NC(=O)[C@H](C)NC(=O)[C@H](CO)NC(=O)[C@H](CC(C)C)NC(=O)[C@H](CCC(N)=O)NC(=O)[C@H](CC)NC(=O)[C@H](CC(C)C)NC(=O)[C@@H](NC(=O)[C@H](CCCN)NC(=O)[C@H](CCCNC(=N)N)NC(=O)[C@H](Cc1ccc(O)cc1)NC(=O)[C@H](CO)NC(=O)[C@H](CCC(N)=O)NC(=O)[C@@H](NC(=O)[C@H](Cc1ccccc1)NC(=O)[C@@H](NC(=O)[C@H](C)NC(=O)[C@H](CC(=O)O)NC(=O)[C@@H](C)NC(=O)[C@H](Cc1ccc(O)cc1)NC)[C@@H](C)CC)[C@@H](C)O)C(C)C)[C@@H](C)CC)C(=O)N[C@@H](CC(=O)O)C(=O)N[C@@H](CCCNC(=N)N)C(=O)NCCCCC(N)=O", "assay": "GH release, ELISA", "test system": "male Sprague-Dawley rat, anaesthetised, serum", "conditions": "subcutaneous, 3 µg/kg, 0 min", "measurement": "serum GH level", "result": "43.7 ± 6.4 ng/mL"}
{"Structure (SMILES)": "CCOP(=O)(CC(=O)Nc1ccc(S(=O)(=O)N(CC(N)=O)c2ccc(N(CC(N)=O)S(=O)(=O)c3ccc(OC)cc3)c3ccccc23)cc1)OCC", "assay": "western blot, refers to: BACE1", "test system": "APP/PS1 mice, hippocampus and frontal cortex", "conditions": "40 mg/kg, 2 months daily", "measurement": "protein level", "result": "decreased"}
{"Structure (SMILES)": "COc1c2c(cc3oc(COC4OC(CO)C(O)C(O)C4O)cc(=O)c13)OC(C(C)(C)O)C2 (stereo not shown)", "assay": "analgesia", "test system": "mouse", "conditions": "oral, 1 mg/kg, 0.5 h", "measurement": "hot plate latency", "result": "9.51 ± 1.71 s"}
{"Structure (SMILES)": "CC[C@H](C)[C@H](NC(=O)[C@H](Cc1c[nH]cn1)NC(=O)[C@@H]1CSSC[C@H](NC(=O)[C@H](Cc2c[nH]cn2)NC(=O)[C@H](Cc2ccccc2)NC(=O)CN2CCN(CC(=O)O)CCN(CC(=O)O)CCN(CC(=O)O)CC2)C(=O)N2C[C@H](O)C[C@H]2C(=O)N[C@@H](Cc2ccc(O)c(Cl)c2)C(=O)N[C@@H](CC(=O)O)C(=O)N[C@@H](CC(C)C)C(=O)N1)C(=O)N[C@@H](CC(C)C)C(=O)NCc1ccc(CNC(=O)CN2CCN(CC(=O)O)CCN(CC(=O)O)CCN(CC(=O)O)CC2)cc1 [indium-111 labelled]", "assay": "ex vivo gamma counting", "test system": "rat, carotid crush thrombosis model, carotid artery", "how to read": "relative to: thrombosed over contralateral vessel", "measurement": "thrombus to contralateral ratio", "result": "3 to 4"}
{"Structure (SMILES)": "CN(C)c1ccc(-c2oc3ccccc3c(=O)c2OCc2ccccc2)cc1", "test system": "diabetic rat", "conditions": "5 mg/kg, 28 days, p-nitrophenyl β-glucoside induced", "measurement": "serum LDL cholesterol", "result": "114 ± 3.4 mg/dL"}
{"Structure (SMILES)": "CCCC[C@H](NC(=O)[C@@H](NC(=O)[C@H](CC(=O)O)NC(=O)[C@H](CCC(N)=O)NC(=O)[C@H](CC(C)C)NC(=O)[C@H](CC(C)C)NC(=O)[C@H](CCCN)NC(=O)[C@H](CCCNC(=N)N)NC(=O)[C@H](C)NC(=O)[C@H](CO)NC(=O)[C@H](CC(C)C)NC(=O)[C@H](CCC(N)=O)NC(=O)[C@H](CC)NC(=O)[C@H](CC(C)C)NC(=O)[C@@H](NC(=O)[C@H](CCCN)NC(=O)[C@H](CCCNC(=N)N)NC(=O)[C@H](Cc1ccc(O)cc1)NC(=O)[C@H](CO)NC(=O)[C@H](CCC(N)=O)NC(=O)[C@@H](NC(=O)[C@H](Cc1ccccc1)NC(=O)[C@@H](NC(=O)[C@H](C)NC(=O)[C@H](CC(=O)O)NC(=O)[C@H](C)NC(=O)CCc1ccc(O)cc1)[C@@H](C)CC)[C@@H](C)O)C(C)C)[C@@H](C)CC)C(=O)N[C@@H](CC(=O)O)C(=O)NCCCCNC(=N)N", "assay": "GH release, ELISA", "test system": "male rat, anaesthetised, serum", "conditions": "intravenous, 1 µg/kg, 5 min", "measurement": "serum GH level", "result": "538 ± 58.3 ng/mL"}
{"Structure (SMILES)": "CCCCCCOC(=O)Cc1c(C)n(C(=O)c2ccc(Cl)cc2)c2ccc(OC)cc12", "assay": "acetic acid writhing test", "test system": "BALB/c mouse", "conditions": "intraperitoneal, 20 mg/kg", "how to read": "relative to: negative control", "measurement": "analgesia", "result": "69.3%"}
{"Structure (SMILES)": "[2H]C([2H])([2H])C(c1cc2nnc(-c3cc(F)ccc3F)n2nc1OCc1ncnn1C)(C([2H])([2H])[2H])C([2H])([2H])[2H]", "assay": "Racine scale", "test system": "amygdala-kindled Wistar rats", "conditions": "oral, 100 mg/kg, 2 h before stimulation, unit not given", "how to read": "relative to: baseline", "measurement": "seizure severity change", "result": -4}
